Published values of several laboratories.
Each line is one published result; not all experiments were run side by side. ± gives the spread as reported.

Cl.[2H]C([2H])([2H])CC(=O)c1cnc(NC(=O)C2CC2)cc1Nc1cccc(-c2ncn(C([2H])([2H])[2H])n2)c1OC  Ctrough (human, fasted, multiple dose; oral, 20 mg once daily, tablet, day 14, geometric mean): 15.1 ng/mL
COc1ccc(NC(=O)N2CCCCN3[C@H](CN(C)S(C)(=O)=O)[C@H](c4ccc(C#Cc5ccccc5)cc4)[C@@H]3C2)cc1  Vss (CD-1 mouse; intravenous, dose not given): 4 L/kg
CC(C)C(=O)O[C@H]1[C@H](C)OC(=O)[C@@H]1Cc1ccccc1  Freundlich coefficient KF (soil adsorption; clay loam soil; pH 6.8, organic carbon 0.5 %): 2.3 mL/g
C[C@@H](Cn1ccc(-c2ccc(C#N)c(Cl)c2)n1)NC(=O)c1cc([C@@H](C)O)[nH]n1  AUC(0-tlast) (human, fasted, plasma; oral tablet, 300 mg, geometric mean): 2180 ng·h/mL
CCN1CCN(Cc2ccc(NC(=O)c3ccc(C)c(NC(=O)c4cncc(-c5cccs5)c4)c3)cc2C(F)(F)F)CC1  mean plasma concentration (LC-MS/MS; C57BL/6 mouse, plasma; intraperitoneal, 30 mg/kg single dose, 24 h): 12 ng/mL
C[C@@H]1CN(c2c(F)c(N)c3c(=O)c(C(=O)O)cn(C4CC4)c3c2F)C[C@H](C)N1  QTc interval (male Hartley guinea pig, anaesthetized; intravenous, 3 mg/kg, baseline before infusion): 333 ± 1.1 ms
O=C(c1nc2n(n1)[C@H](c1ccccc1)C[C@@H]2F)C1CC1  fraction excreted in urine 0-72 h (human; 150 mg single dose, mean): 0.16%
CC(C)CC(C#N)NS(=O)(=O)c1cccc(Cl)c1O (centres unmarked)  DLS scattered light intensity (colloidal aggregate formation, dynamic light scattering; 50 mM potassium phosphate buffer; 200 µM, pH 7.0, 1% DMSO; higher = more aggregation): 385000 counts/s
CCc1cc(C(=O)NC)c2nccc(N3CCc4c(cc(Cn5ccnc5)cc4-c4cn(C)nc4C(F)(F)F)C3=O)c2c1  kidney weight (Sprague Dawley rat; oral, 50 mg/kg once daily, 7 days): 2.58 ± 0.089 g
C[C@H](CS)C(=O)N1CCC[C@H]1C(=O)O  QTc interval (male Hartley guinea pig, anaesthetized; intravenous, 10 mg/kg, baseline before infusion): 339 ± 0.9 ms
CC(C)C[C@H](NC(=O)CNC(=O)c1cc(Cl)ccc1Cl)B(O)O  treatment-emergent adverse events (measured: Hypokalaemia; human newly diagnosed multiple myeloma; oral, dose not given, maintenance, grade 3, onset cycle 17 or later): 0%
COc1ncc(-c2nc3c(n2C(C)C)[C@H](c2ccc(Cl)cc2)N(c2cc(Cl)cn(C)c2=O)C3=O)c(OC)n1  median Tmax (human patients, plasma; oral, 50 mg, high-dose arm, cycle 2 day 1): 3.5 h
Cc1ccc(N(C)C(=O)/C=C/c2ccco2)cc1  licking latency (cold plate test; mice; oral, 30 mg/kg daily for 7 days, 45 min after dose, day 8): 20 ± 0.4 s
CN(CCCN1CCN(C(=O)CN2CCN(CC(=O)[O-])CCN(CC(=O)[O-])CCN(CC(=O)[O-])CC2)CC1)c1ccc2nccc(C(=O)NCC(=O)N3CC(F)(F)C[C@H]3C#N)c2c1.[68Ga+3]  uptake (mice, HT-1080.hFAP and HT-1080 wild-type xenografts, intestine; iv, 500 pmol, 4 h post injection): 0.1 %IA/g
CCO[C@H]1CCN(Cc2c(OC)cc(C)c3[nH]ccc23)[C@H](c2ccc(C(=O)O)cc2)C1  incidence of abdominal distension (PNH patients, active haemolysis; oral, 50 mg, 4 weeks, treatment): 0%
Cc1cc(-c2nccc3c2ccn3CC(=O)Nc2ccc(-c3cnccn3)cn2)ccn1  subjects with Epistaxis adverse event (human; 20 mg once daily, multiple ascending dose): 0%
CCOc1c([C@H](C)n2nc(C)c3c(N)ncnc32)cc(Cl)c(F)c1[C@@H]1CNC(=O)C1  Cmax (patients with indolent lymphoma, plasma; oral, 20 mg, day 15, monotherapy): 1.58 µM
C=CC(=O)N1CCC(c2ccc(C(N)=O)c(-c3ccc(Oc4ccccc4)cc3)n2)CC1  serious TEAE rate (relapsed/refractory mantle cell lymphoma patients; oral, 100 mg twice daily, part, CTCAE v4.03): 0%
CNCc1ccc(-c2[nH]c3cc(F)cc4c3c2CCNC4=O)cc1  asthenia/fatigue incidence (patients; oral, 840 mg twice daily, all grades): 33.3%
C[C@H](CCC(=O)NCC(=O)O)[C@H]1CC[C@H]2[C@@H]3CC[C@@H]4C[C@H](O)CC[C@]4(C)[C@H]3C[C@H](O)[C@]12C  daily mean concentration (human, plasma; endogenous baseline diurnal): 239 ± 52 nM
CCc1nc(C(N)=O)c(Nc2ccc(N3CCC(N4CCN(C)CC4)CC3)c(OC)c2)nc1NC1CCOCC1  bench-top stability accuracy (mouse plasma; 425 ng/mL, 6 h, 25 °C): 97.5%
CCCCCc1ccc(C(=O)Oc2ccc(C#N)c(F)c2)cc1  concentration (measured: compound; human pregnant women, female fetuses, maternal serum; dose not given, paired maternal-cord samples, mean): 0.18 ng/mL
COc1cccc(OC)c1-c1cc(C(=O)NC2(C(=O)O)C3CC4CC(C3)CC2C4)nn1-c1ccc(C(=O)N(C)CCCN(C)CCCN(C)C(=O)CN2CCN(CC(=O)[O-])CCN(CC(=O)[O-])CCN(CC(=O)[O-])CC2)cc1C(C)C.[177Lu+3] (centres unmarked)  tissue uptake (mouse, HT-29 xenograft, spleen; 168 h post injection): 0.52 %ID/g
CNC(=O)c1ccc(-c2cnc3ncc(Cc4ccc5ncccc5c4)n3n2)cc1F  Pyrexia treatment discontinuation (Japanese patients; oral, 400 mg, grade 3/4): 0%
Cc1ccc(C(=O)N(CCCN)C(c2nc3snc(C)c3c(=O)n2Cc2ccccc2)C(C)C)cc1 (centres unmarked)  patients with adverse events (measured: Hypophosphatemia; human patients; intravenous, dose not given, CTCAE grade ≥3, all doses): 8%
COc1ccc2c(c1)CN(C(=O)CCN1CCC(Cc3ccccc3)CC1)CC[S@@+]2[O-]  urinary excretion (healthy male volunteers, urine; intravenous, 0.4 mg/kg; reference: dose): 10.3 ± 2.39%
CC(C)(C(=O)N1CCOc2c(C#N)cncc2C1)C(F)F  subjects with dizziness TEAE (human, both sexes; oral, 40 mg single dose): 16.7%
O=c1[nH]ccn1-c1ccc(NS(=O)(=O)c2cc(Cl)cc(Cl)c2O)cc1  DLS scattered light intensity (colloidal aggregate formation, dynamic light scattering; 50 mM potassium phosphate buffer; 200 µM, pH 7.0, 1% DMSO; higher = more aggregation): 558000 counts/s
Nc1nc2c(nc([N+](=O)[O-])n2[C@@H]2O[C@H](CO)[C@@H](O)[C@H]2O)c(=O)[nH]1  nucleoside remaining fraction (depurination, RP-HPLC; citrate-phosphate buffer 0.5 mM; 1360 min, pH 2, 37 °C): 0.0496
CC(=O)Oc1ccccc1C(=O)O  QTc interval (male Hartley guinea pig, anaesthetized; intravenous infusion, 1 mg/kg, 10 min infusion, post-infusion): 310 ± 0.2 ms
Cc1ccc([C@@H]2O[C@H](CO)[C@@H](O)[C@H](O)[C@H]2O)cc1Cc1ccc(-c2ccc(F)cc2)s1  urinary chloride excretion change (Japanese type 2 diabetes patients; 400 mg, day 16, 24 h urine collection; reference: baseline): 7.08 mEq
C/C(O)=C(\C#N)C(=O)Nc1ccc(C(F)(F)F)cc1  blood concentration (CD-1 mice female, whole blood; oral, 30 mg/kg leflunomide daily, 8 h, after dose 10): 314 ± 111 µM
CCn1cc(C(=O)N2CCOCC2)c(=O)c2cc(NC3Cc4ccccc4C3)cnc21  AUC(0-12) (human, fed; oral suspension, 300 mg/day twice daily, day 8, arithmetic mean): 9900 ng·h/mL
Cc1c(Cl)c(C)[n+]([O-])c(Cl)c1-c1noc(-c2cc(O)c(O)c([N+](=O)[O-])c2)n1  serious TEAE incidence (healthy Chinese subjects; oral, 100 mg): 0%
COc1ccc(-c2csc(NC(=O)c3ccc(C(=O)Nc4nc(-c5ccc(OC)c(OC)c5)cs4)s3)n2)cc1OC  HC50 (haemolysis; sheep erythrocytes; 1 h, pH 7.5): > 128 µg/mL
C[C@@H](Nc1cc(F)cc(F)c1)c1cc(C(=O)N(C)C)cc2c(=O)cc(N3CCOCC3)oc12  Cmax geometric mean (human, plasma; oral, 360 mg, day 1 single dose): 1950 ng/mL
CNCCOC12CC3(C)CC(C)(CC(Cn4ncc(-c5ccc(N6CCc7cccc(C(=O)Nc8nc9ccccc9s8)c7C6)nc5C(=O)O)c4C)(C3)C1)C2  PR interval change (beagle dog, male, anaesthetised; intravenous bolus, 0.03 mg/kg, 45 min; reference: baseline): -3 ms
CNC(=O)c1cccc(-c2ccc(O[C@H]3O[C@H](CO)[C@@H](O)[C@H](O)[C@@H]3O)c(C)c2)c1  terminal half-life (Sprague-Dawley rat, male, plasma; oral, 10 mg/kg): 2.85 h
O=C(O)CCCOc1ccc([18F])cc1-c1cc(-c2ccccc2C(F)(F)F)n(-c2ccccc2)n1  radioactivity uptake (gamma counting; male ddY mice, muscle; intravenous, 2.1 MBq, 15 min): 0.91 ± 0.11 SUV
CNC(=O)c1ccc(-c2cnc3ncc(Cc4ccc5ncccc5c4)n3n2)cc1F  patients with adverse event (measured: Dyspepsia; hepatocellular carcinoma patients; oral, 600 mg twice daily, expansion cohort, grade 3-4): 0%
O=C(O)CCC(=O)O.[2H]C([2H])([2H])Oc1cc(C)c2[nH]ccc2c1CN1CC[C@@H](C2CC2)C[C@H]1c1ccc(C(=O)O)cc1  TEAE decreased white cells (healthy Chinese subjects; 600 mg, single ascending dose): 0%
Cc1cc(C)c(CNC(=O)c2cc(Cl)c3c(c2C)O[C@@](C)([C@H]2CC[C@H](N(C)C)CC2)O3)c(=O)[nH]1  grade ≥3 adverse event Thrombocytopenia (relapsed/refractory NHL patients; oral, 200 mg once daily, onset after cycle 1 day 1): 4.2%
O=C(Nc1ccc(OC(F)(F)Cl)cc1)c1cnc(N2CC[C@@H](O)C2)c(-c2ccn[nH]2)c1  grade ≥3 event rate (per laboratory record, measured: lipase increase; human patients; oral, dose not given): 0.3%
CC1C(C)[C@H](C(=O)NCCc2nnnn2-c2ccccc2)[C@@H]1C(=O)[O-].[Na+] (some centres unmarked)  DLS scattered light intensity (colloidal aggregate formation, dynamic light scattering; 50 mM potassium phosphate buffer; 200 µM, pH 7.0, 1% DMSO; higher = more aggregation): 598000 counts/s
NCCONC(=O)[C@@H]1CC[C@@H]2CN1C(=O)N2OS(=O)(=O)O  number of Mild TRAE events (healthy Chinese male subjects; intravenous, 1 g): 3
COc1ccc2c(=O)n(C)c(-c3ccccc3)nc2c1  tissue concentration (male Sprague-Dawley rat, small intestine; oral, 30 mg/kg, 4 h): 12400 ng/g
O=C(O)c1cc(Br)ccc1F  HC50 (haemolysis; sheep erythrocytes; 1 h, pH 7.5): > 128 µg/mL
O=C(Nc1cnccc1Cl)N1CCN(Cc2ccc3c(c2)OC(F)(F)O3)CC1  alanine aminotransferase increased (multiple ascending dose; young women; 100 mg, treatment-emergent adverse events): 0%
CO/N=C(\C(=O)N[C@@H]1C(=O)N2C(C(=O)O)=C(COC(C)=O)CS[C@H]12)c1csc(N)n1  deviation from nominal concentration (human whole blood; concentration not given, 8 h, 4 °C): 4.1%
COc1cc(NS(=O)(=O)c2cc(Cl)cc(Cl)c2O)c(F)cc1C#N  DLS scattered light intensity (colloidal aggregate formation, dynamic light scattering; 50 mM potassium phosphate buffer; 200 µM, pH 7.0, 1% DMSO; higher = more aggregation): 1.07e+06 counts/s
O=C1CCc2ccc(OCCCCN3CCN(c4cccc(Cl)c4Cl)CC3)cc2N1  adverse event incidence (measured: Tremor; patients, CYP2D6 intermediate metabolizers; dose not given, long-acting oral or depot): 8.9%
O=C(Nc1nc2cccc(-c3ccc(CN4CCS(=O)(=O)CC4)cc3)n2n1)C1CC1  treatment-emergent adverse events (measured: any adverse event; human rheumatoid arthritis patients; oral, 200 mg once daily, 4 weeks, regardless of relatedness): 50%
O=S(=O)(Nc1ccc(C2CCOC2)cc1)c1cccc(Cl)c1O (centres unmarked)  DLS scattered light intensity (colloidal aggregate formation, dynamic light scattering; 50 mM potassium phosphate buffer; 200 µM, pH 7.0, 1% DMSO; higher = more aggregation): 267000 counts/s
COc1cc(-c2cnc3cc(OCCN4CCOCC4)ccn23)cc2c1C(=O)N(CC(F)(F)F)CC2  Ctrough (LC-MS; human, plasma; oral, 350 mg once daily, day 8, co-dosed with methotrexate; arithmetic mean): 70.1 ng/mL
C=CC(NS(=O)(=O)c1cccc(Cl)c1O)C1CCC1 (centres unmarked)  DLS scattered light intensity (colloidal aggregate formation, dynamic light scattering; 50 mM potassium phosphate buffer; 200 µM, pH 7.0, 1% DMSO; higher = more aggregation): 2.89e+08 counts/s
CCN1/C(=C/C(C)=O)Sc2ccc(F)cc21  QRS duration (cynomolgus monkey; oral, 100 mg/kg, 24 h post-dose): 35 ± 1 ms

A few entries again:
CN(CCCN1CCN(C(=O)CN2CCN(CC(=O)[O-])CCN(CC(=O)[O-])CCN(CC(=O)[O-])CC2)CC1)c1ccc2nccc(C(=O)NCC(=O)N3CC(F)(F)C[C@H]3C#N)c2c1.[68Ga+3]  uptake (mice, HT-1080.hFAP and HT-1080 wild-type xenografts, intestine; iv, 500 pmol, 4 h post injection): 0.1 %IA/g
CCO[C@H]1CCN(Cc2c(OC)cc(C)c3[nH]ccc23)[C@H](c2ccc(C(=O)O)cc2)C1  incidence of abdominal distension (PNH patients, active haemolysis; oral, 50 mg, 4 weeks, treatment): 0%
Cc1cc(-c2nccc3c2ccn3CC(=O)Nc2ccc(-c3cnccn3)cn2)ccn1  subjects with Epistaxis adverse event (human; 20 mg once daily, multiple ascending dose): 0%
CCOc1c([C@H](C)n2nc(C)c3c(N)ncnc32)cc(Cl)c(F)c1[C@@H]1CNC(=O)C1  Cmax (patients with indolent lymphoma, plasma; oral, 20 mg, day 15, monotherapy): 1.58 µM
C=CC(=O)N1CCC(c2ccc(C(N)=O)c(-c3ccc(Oc4ccccc4)cc3)n2)CC1  serious TEAE rate (relapsed/refractory mantle cell lymphoma patients; oral, 100 mg twice daily, part, CTCAE v4.03): 0%
CNCc1ccc(-c2[nH]c3cc(F)cc4c3c2CCNC4=O)cc1  asthenia/fatigue incidence (patients; oral, 840 mg twice daily, all grades): 33.3%
C[C@H](CCC(=O)NCC(=O)O)[C@H]1CC[C@H]2[C@@H]3CC[C@@H]4C[C@H](O)CC[C@]4(C)[C@H]3C[C@H](O)[C@]12C  daily mean concentration (human, plasma; endogenous baseline diurnal): 239 ± 52 nM
CCc1nc(C(N)=O)c(Nc2ccc(N3CCC(N4CCN(C)CC4)CC3)c(OC)c2)nc1NC1CCOCC1  bench-top stability accuracy (mouse plasma; 425 ng/mL, 6 h, 25 °C): 97.5%
CCCCCc1ccc(C(=O)Oc2ccc(C#N)c(F)c2)cc1  concentration (measured: compound; human pregnant women, female fetuses, maternal serum; dose not given, paired maternal-cord samples, mean): 0.18 ng/mL
